Measured values gathered from unrelated publications.
Each line is one published result; not all experiments were run side by side. “And” joins repeats or separate records; there may be more than shown. ± marks the error that the study gave.

| SMILES | target | assay | test system | setting | IC50 |
| --- | --- | --- | --- | --- | --- |
| CC(=O)N[C@@H]1[C@@H](O)[C@@H](O)[C@H](Oc2c(-c3ccc(O)cc3)oc3cc(O)cc(O)c3c2=O)O[C@H]1CC(C)C | RPS6KA3 (Homo sapiens, UniProt P51812) | enzyme activity, inhibitor | – | – | 2.33 µM |
| CC(C)C[C@H](NC(=O)[C@@H](Cc1c[nH]c2ccccc12)NC(=O)[C@H](Cc1ccc(O)cc1)NC(=O)[C@H](CO)NC(=O)[C@H](Cc1c[nH]c2ccccc12)NC(=O)[C@H](Cc1c[nH]cn1)NC(=O)[C@@H]1CCC(=O)N1)C(=O)N[C@@H](CCCNC(=N)N)C(=O)N1CCC[C@H]1C(=O)NCC(N)=O | Gonadotropin-releasing hormone receptor (Rattus norvegicus, UniProt P30969) | binding, radioligand displacement | WPE-1-NB26-3 expressing Gonadotropin-releasing hormone receptor, whole cells | together with: radioiodinated GnRH analogue | 0.0009 ± 0.0003 µM |
| COc1cc(N2CCN(C)CC2)ccc1Nc1ncc2c(n1)N(C)c1ccc(C)cc1C(=O)N2CC(F)(F)F | MAPK7 (Homo sapiens, UniProt Q13164) | binding, KINOMEscan | – | – | > 10 µM |
| COc1cc(C(=O)NC2CCC(N3CCC[C@@H](C)C3)CC2)c(F)cc1Nc1ncc2c(n1)N([C@H]1CCCC1(F)F)CC(F)(F)C(=O)N2C (some centres unmarked) | PLK1 (Homo sapiens, UniProt P53350) | enzyme activity, inhibitor, ADP detection | – | – | 6.83e-05 µM |
| CC(=O)NCCN(CCC(=O)NCCN(CCC(=O)NCCN(CCC(=O)NCCC(N)=O)C(=O)[C@@H](N)Cc1ccccc1)C(=O)[C@@H](N)Cc1ccccc1)C(=O)[C@@H](N)CCCNC(=N)N | HIV-1 TAR RNA | Tat/TAR complex displacement, FRET | – | room temperature, together with: 10 nM Tat/TAR complex | 66.6 ± 0.7 µM |
| Fc1ccc(Nc2nc(NC3CCCCC3)c3ccccc3n2)cc1F | ADRB2 (Homo sapiens, UniProt P07550) | enzyme activity, inhibitor | – | – | 18 µM |
| Cc1ccc(C=C2C(=O)c3ccccc3C2NC2CCCCC2)cc1 (racemic) | Dual specificity protein phosphatase 6 (Homo sapiens, UniProt Q16828) | ERK phosphorylation restoration, inhibitor, chemical complementation | HeLa transfected with c-Myc-DUSP6 | 15 min, together with: TPA | 64.7 ± 15.7 µM |
| O=C(NCCCCc1ccccc1)n1c(=O)oc2cc(-c3ccc(F)cc3)ccc21 | Acid ceramidase (Asah1, Mus musculus, UniProt Q9WV54) | cellular enzyme activity, LC-MS | RAW264.7 | 3 h | 0.4 µM |
| NC(=O)[C@@H]1CCCN1C(=O)[C@H](Cc1cn(Cc2ccccc2)cn1)NC(=O)c1nccnc1N | Thyrotropin-releasing hormone receptor (Mus musculus, UniProt P21761) | ligand displacement, radioligand | – | – | > 50 µM |
| Nc1ncnc2c1ncn2C1OC(COP(=O)(O)O)C(O)C1O (centres unmarked) | Fructose-1,6-bisphosphatase 1 (Mus musculus, UniProt Q9QXD6) | enzyme activity, inhibitor | native enzyme from mouse liver | – | ~20 µM |
| COC(=O)N1CCC(CN2CCC(CNC(=O)c3cccc4[nH]c(C(C)C)nc34)CC2)CC1 | SLC47A2 (Homo sapiens, UniProt Q86VL8) | transporter uptake, inhibitor | – | – | 4.84 µM |
| Nc1nc2c(=O)n3cnc2n1[C@@H]1O[C@H](Cn2cc(nn2)COC[C@H]2O[C@@H]3[C@H](O)[C@@H]2O)[C@@H](O)[C@H]1O | CD38 (Homo sapiens, UniProt P28907) | enzyme activity, inhibitor | – | – | 185 µM |
| CC(=O)N[C@H]1[C@@H](OC(=O)NCCCOCCOCCOCCCNC(=O)O[C@H]2O[C@H](CNC(=O)OCCOCCOCCOCCOCCOCCOCCOCCOCCOCCOC(=O)NC[C@H]3O[C@H](OC(=O)NCCCOCCOCCOCCCNC(=O)O[C@H]4O[C@H](CO)[C@@H](O)[C@H](O)[C@H]4NC(C)=O)[C@H](NC(C)=O)[C@@H](O)[C@@H]3O)[C@@H](O)[C@H](O)[C@H]2NC(C)=O)O[C@H](CO)[C@@H](O)[C@@H]1O | wheat germ agglutinin (Triticum vulgaris) | binding to immobilised GlcNAc, inhibitor, enzyme-linked lectin | – | together with: HRP-labelled WGA | 0.0069 µM |
| C=C(NC(=O)C(=C)NC(=O)c1csc(C2=NC3c4csc(n4)C4NC(=O)c5csc(n5)C(C(C)(O)C(C)O)NC(=O)C5CSC(=N5)C(=CC)NC(=O)C(C(C)O)NC(=O)c5csc(n5)C3(CC2)NC(=O)C(=C)NC(=O)C(=C)NC(=O)C(C)NC(=O)C(C(C)CC)NC2C=Cc3c(C(C)O)cc(nc3C2O)C(=O)OC4C)n1)C(N)=O (centres unmarked) | Proteasome subunit beta type-7, in 20S proteasome (PSMB7, Homo sapiens, UniProt Q99436) | trypsin-like activity, inhibitor | purified 20S proteasome | 15 min preincubation, 37 °C, together with: Boc-Leu-Arg-Arg-AMC substrate | 2.46 ± 0.43 µM |
| O=C(O)c1ccc(-n2[nH]cc(-c3cccnc3)c2=O)nc1 | EGLN2 (Homo sapiens, UniProt Q96KS0) | enzyme activity, inhibitor, europium VBC binding | – | 10 µM FeSO4, 2 mM ascorbate, together with: 20 µM 2-oxoglutarate | 0.49 µM |
| CCn1nc(-c2ccc(C(F)(F)F)cc2)nc2c(=O)n(C)c(=O)nc1-2 | TPR (Trypanosoma brucei brucei, UniProt P39051) | inhibitor, DTNB-coupled colourimetric | – | together with: substrate at Km | 15.2 µM |
| CCn1c(-c2cc(NC(=O)c3cnccn3)n[nH]2)cc2ccc(OC)cc21 | CSNK2A1 (Homo sapiens, UniProt P68400) | – | – | – | 0.97 ± 0.14 µM |
| N#Cc1c(O)nsc1Nc1ccccc1C(F)(F)F | SARM1 (Homo sapiens, UniProt Q6SZW1) | enzyme activity, inhibitor | – | – | 0.37 µM |
| CNC(=O)C1CCN(c2cc(C)c(F)cc2NC(=O)c2ccc(-c3c(C)ccc4[nH]ncc34)c(C)c2)CC1 | EPHB2 (Homo sapiens, UniProt P29323) | target engagement in cells, BRET | – | – | 0.06 µM |
| C=CCC(=N)NCCC[C@H](N)C(=O)O | Nos1 (Rattus norvegicus, UniProt P29476) | measured: cGMP | immature rat cerebellar slices | 2 min, together with: NMDA 100 µM | 1.3 µM |
| Cn1c(=O)n(C)c2cc(/C=C(\C#N)C(N)=O)ccc21 | Ribosomal protein S6 kinase alpha-3, C-terminal kinase domain (RPS6KA3, Homo sapiens, UniProt P51812) | enzyme activity, inhibitor | – | 10 mM reduced glutathione, together with: 0.1 mM ATP, peptide substrate | 6 µM |
| Nc1cc(Oc2ccc(-c3ccccc3)cc2)nn1S(=O)(=O)c1ccc(Oc2ccccc2)cc1 | Genome polyprotein, protease (West Nile virus, UniProt P06935) | enzyme activity, inhibitor, fluorescence | – | with preincubation | 8.4 µM |
| CC(C)OC(=O)C(CS)N1C(=O)c2ccc(N(C)C)cc2C1=O (centres unmarked) | Metallo-beta-lactamase type 2 (Serratia marcescens, UniProt P52699) | enzyme activity, inhibitor | – | pH 7.0, together with: chromacef 25 µM | 0.035 ± 0.006 µM |
| O=C(c1cc([N+](=O)[O-])ccc1Cl)N1CCN(c2ccc(F)cc2)CC1 | SEC14 (Saccharomyces cerevisiae, UniProt P24280) | enzyme activity, inhibitor, radiometric | – | – | > 100 µM |
| N[C@@H](CCC(=O)N[C@@H](CS[Se]Cc1ccc(C(=O)Nc2cc(C(F)(F)F)c(Br)c(C(F)(F)F)c2)cc1)C(=O)NCC(=O)O)C(=O)O | PTPN5 (Homo sapiens, UniProt P54829) | enzyme activity, inhibitor | – | together with: pNPP, GSH 1 mM | 6.2 ± 2.9 µM |
| COc1cc(-c2nc3ccc(C(=O)NCCCN4CCN(c5ccccn5)CC4)cc3n2C2CCC2)cc(OC)c1OC | ACVR1 (Homo sapiens, UniProt Q04771, R206H) | binding, NanoBRET | HEK293 | – | 0.71 µM |
| COc1ccc(NC(=O)N2CCCN3CCC(c4ccc(C#Cc5ccccc5)cc4)C3C2)cc1 (centres unmarked) | Phenylalanine--tRNA ligase alpha subunit (Homo sapiens, UniProt Q9Y285) | enzyme activity, inhibitor, absorbance | – | – | 16 µM and 15.6 µM |
| Nc1ncc(-c2cnn(C3CCNCC3)c2)cc1-c1nc2cc(F)cc(O)c2o1 | JAK2 (Homo sapiens, UniProt O60674) | enzyme activity, inhibitor, TR-FRET | – | – | 0.81 µM |
| CCn1c(SC(C)C(=O)Nc2ccc(C)cc2C)nnc1C1CCN(C(=O)Nc2ccccc2)CC1 (centres unmarked) | Seed linoleate 13S-lipoxygenase-1 (Glycine max, UniProt P08170) | enzyme activity, inhibitor | – | – | 21.6 µM |
